Experimental data collected from several papers.
Each numbered part is a random draw from the data of one study; scales do not carry over between parts. Substitutions count along the parent as printed.

Block 1
Target: Histone acetyltransferase KAT6A, both winged helices, GST fusion (KAT6A, Homo sapiens, UniProt Q92794, residues 1-181)
Method: protein binding microarray
Molecule type: double-stranded DNA, one strand shown
Medium: in vitro
Tested at: not given
Setting: 8-mer, flanks averaged, mean of 2 arrays, mostly near background
Baseline: not given
Direction: higher = stronger binding
Endpoint: E-score
Target sequence (chain): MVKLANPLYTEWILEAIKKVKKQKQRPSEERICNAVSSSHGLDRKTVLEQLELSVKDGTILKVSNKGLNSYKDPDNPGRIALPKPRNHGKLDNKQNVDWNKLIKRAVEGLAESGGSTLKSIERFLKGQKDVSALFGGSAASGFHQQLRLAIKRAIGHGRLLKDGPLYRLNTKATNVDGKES
Oligonucleotide = GGACGTGA; result = -0.0396
Oligonucleotide = AGAACTAT; result = -0.133
Oligonucleotide = GGCACATA; result = 0.108
Oligonucleotide = AGTGCAGA; result = -0.106
Oligonucleotide = AGTTAAAC; result = -0.0795
Oligonucleotide = AACTTCAA; result = -0.145

Block 2
Target: CCNF, cyclin fold, Cln2 fusion (human)
Method: yeast growth competition, sequencing
Medium: yeast
Setting: strong parent motif
Baseline: not given
Direction: higher = stronger binding
Endpoint: normalised enrichment score
Starting sequence: RBL1 docking peptide (human); GSAKRRLFGEDPP
Variant = PSAKRRLFGEDPP [G1P]; result = 8.37
Variant = GSAKRRLLGEDPP [F8L]; result = 1.16
Variant = GSVKRRLFGEDPP [A3V]; result = 8.74
Variant = GSAKQRLFGEDPP [R5Q]; result = 0.458
Variant = GSAKSRLFGEDPP [R5S]; result = 0.712

Block 3
Target: RING finger protein unkempt homolog, zinc fingers 1-6, GST-SBP tag (UNK, Homo sapiens, UniProt Q9C0B0, residues 30-357)
Method: RNA Bind-n-Seq
Molecule type: RNA
Medium: in vitro
Tested at: not given
Setting: RNA with constant flanks, human and mouse sites, ends assumed
Baseline: input RNA pool
Direction: higher = stronger binding
Endpoint: bound/input enrichment
Residues (chain): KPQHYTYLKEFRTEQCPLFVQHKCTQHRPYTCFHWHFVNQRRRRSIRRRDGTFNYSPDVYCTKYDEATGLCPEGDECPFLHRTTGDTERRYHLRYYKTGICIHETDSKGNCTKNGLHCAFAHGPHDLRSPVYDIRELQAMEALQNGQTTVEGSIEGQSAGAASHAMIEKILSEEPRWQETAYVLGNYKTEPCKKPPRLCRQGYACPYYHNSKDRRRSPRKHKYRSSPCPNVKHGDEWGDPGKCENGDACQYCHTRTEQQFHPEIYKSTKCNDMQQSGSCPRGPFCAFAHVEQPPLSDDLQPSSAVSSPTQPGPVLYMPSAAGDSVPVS
Oligonucleotide = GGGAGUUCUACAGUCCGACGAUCCUUUUAAAACAAGUGCUUCAGAUCCAGAAAUUUGUUAACAUGAAAACUCAAGGAUGUUUUCCUCAGUUGUUUCCUGUAAGUGCUGUGACCUUUUCUGGAAUCCACCUGUUGAGAUGCUUUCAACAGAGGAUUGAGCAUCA; result = 0.287 ratio
Oligonucleotide = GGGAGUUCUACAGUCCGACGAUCGUAUAUCAAGGAGUGAAGAAACACGGCUUCUUACAGCCUCAUUUUUUGGCAGAACAAGAUAUAGUUAUCAUUACCUAUGAUGUUCUUCGUUCAGAACUAAACUAUGUCAAUAUCCCACAUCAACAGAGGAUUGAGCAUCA; result = 0.0919 ratio
Oligonucleotide = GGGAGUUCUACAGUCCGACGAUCAUUUUGUGAGGUACCACUACAACGGGACGUUCCUGGACGGAACUCUGUUUGAUUCGAGUCACAAUCGCAUGAAAACAUAUGACACGUAUGUGGGAAUUGGCUGGCUGAUUCCUGGAAUGGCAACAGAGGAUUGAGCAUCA; result = 0.17 ratio
Oligonucleotide = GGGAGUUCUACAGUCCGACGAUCCUAGUUGAACAUAUUCUUAAAUAUGAGGAAUCUCUAGCUGACUCAGACAAUAAAGGUGUAAAUUCUGGAAGAUUGGUAGCUUGUAUAACCACUUUGUUCUUAUUCAGCAAAAUAAGACCCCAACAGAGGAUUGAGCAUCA; result = 0.323 ratio
Oligonucleotide = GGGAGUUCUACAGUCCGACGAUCCAGAUAGCAUCAUUAAGAUCAGUUUUAAGGGGUAUAGGGAGGGUGAGGGAAGUGGGGGGUGUUAGGUAAGGGUUGGGGGUAGAGGUUUUGGGAUGUCUUAGUUAGAAACCAGAUUAAUAGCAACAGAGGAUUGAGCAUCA; result = 27.8 ratio

Single results of other studies
Substance = PhoQ, residues 284 288 289 292 302 303 AGHLVA; target = PhoP, residues 12 14 15 18 19 NNFVT (Escherichia coli, UniProt P23836); test = Sort-seq, refers to: YFP reporter; test system = E. coli; setting = PhoQ-PhoP variant library, with: 10 µM Mg2+; how to read = baseline: high Mg2+ state, higher = stronger signaling; endpoint = fold induction; result = 1.92
